Results gathered from unrelated publications.
Lines come from different studies, so protocols differ. Values joined by “and” are separate records of one study, mostly repeats; a detail may differ. ± gives the spread as reported.

Structure (SMILES)	test	system	setting	how to read	endpoint	value
C=Cc1c(C)c2cc3nc(c(CC(=O)OCCOCCOCCOC)c4[nH]c(cc5nc(cc1[nH]2)C(C)=C5CC)c(C)c4C(=O)OCCOCCOCCOC)[C@@H](CCC(=O)OCCOCCOCCOC)[C@@H]3C	LC-MS	methanol-water 9:1	4 h, pH 8.0	–	compound loss	100%
CN1C(=O)[C@@H](Cc2ccc(O)c(I)c2)NC(=O)CNC(=O)[C@H](Cc2ccc3ccccc3c2)NC(=O)[C@H](CCCNC(=N)N)NC(=O)[C@H]1CCCNC(=O)c1ccc(CNC(=O)CN2CCN(CC(=O)O)CCN(CC(=O)O)CCN(CC(=O)O)CC2)cc1 [lutetium-177 labelled]	2	human, extrapolated from mouse, Upper large intestine wall	–	–	total absorbed dose	0.17 mGy/MBq
CN1CCC[C@]1(C)/C=C/S(=O)(=O)NC(=O)Nc1c2c(cc3c1CCC3)CC=C2	–	human, plasma	oral, 50 mg twice daily of parent drug, day 14, metabolite of dosed drug	–	Tmax at second steady-state dose	4 h
CCCCN1C(=O)c2cccc3c(NCCCCCCN4CCOCC4)ccc(c23)C1=O	–	ethyl acetate	–	–	fluorescence lifetime	9.7 ns
COc1cccc(OC)c1-c1cc(C(=O)NC2(C(=O)O)C3CC4CC(C3)CC2C4)nn1-c1ccc(C(=O)N(C)CCOCCOCCN(C)C(=O)[C@H](CCCCNC(=O)[C@H](CC(C)C)NC(=O)C2OC2C(=O)O)NC(=O)CN2CCN(CC(=O)[O-])CCN(CC(=O)[O-])CCN(CC(=O)[O-])CC2)cc1C(C)C.[177Lu+3] (mixture of isomers)	–	mouse, HT-29 xenograft, heart	72 h post injection	–	tissue uptake	0.08 %ID/g
N=C(N)NCCC[C@@H]1NC(=O)[C@H](CO)NC(=O)[C@@H](NC(=O)[C@H](CO)NC(=O)[C@H](CO)NC(=O)[C@H](Cc2c[nH]c3ccccc23)NC(=O)CNC(=O)[C@H](CO)NC(=O)[C@@H](N)Cc2c[nH]c3ccccc23)CSSC[C@@H](C(=O)NCC(=O)O)NC(=O)[C@H](CO)NC1=O	–	patients, plasma	intravenous, 10 mg/kg, thrice weekly, mean	–	total clearance	1050 L/h
C=CC(=O)Nc1cc(Nc2nccc(-c3cn(C4CC4)c4ccccc34)n2)c(OC)cc1N(C)CCNC	long-term storage stability	rat plasma	80 ng/mL, 3 weeks, -80 °C	reference: nominal concentration	relative error	1.7%
COc1ccnc(C(=O)N[C@H]2COC(=O)[C@H](Cc3ccccc3)[C@@H](OC(=O)C(C)C)[C@H](C)OC2=O)c1O	–	sediment, Swiss lake sand	20 °C, aerobic dark	–	DT50	2.65 days
C=C(NC(=O)c1csc(-c2nc3c(cc2O)-c2nc(cs2)C(=O)NC(C(C)O)C(=O)NC(=C(C)OC)c2nc(cs2)C(=O)NC2c4nc(cs4)C(=O)NC(COC(=O)c4c5c6c(cccc6n4O)COC(=O)C(OC4CC(C)(O)C(N(C)C)C(C)O4)C2OC5)c2nc-3cs2)n1)C(N)=O (centres unmarked)	–	Sprague-Dawley rat, both sexes, plasma	intravenous infusion, 6 mg/kg, multiple doses, day 1	–	Vz/F	24.3 L/kg
CC(=O)N[C@H](CC(=O)O)C(=O)N[C@H](Cc1c[nH]c2ccccc12)C(=O)N[C@H](Cc1ccccc1)C(=O)N[C@H](CCCCN)C(=O)N[C@H](C)C(=O)N[C@H](Cc1ccccc1)C(=O)N[C@H](Cc1ccc(O)cc1)C(=O)N[C@H](CC(=O)O)C(=O)N[C@H](CCCCN)C(=O)N[C@@H](C(=O)N[C@H](C)C(=O)N[C@H](CCC(=O)O)C(=O)N[C@H](CCCCN)C(=O)N[C@H](Cc1ccccc1)C(=O)N[C@H](CCCCN)C(=O)N[C@H](CCC(=O)O)C(=O)N[C@H](C)C(=O)N[C@H](Cc1ccccc1)C(N)=O)C(C)C	–	human, plasma	oral, 500 mg daily, 4 h post-dose, day 13	–	plasma concentration	110 ng/mL
CC[C@H](C)[C@H](NC(=O)[C@H](CCCNC(=N)N)NC(=O)[C@H](Cc1c[nH]cn1)NC(=O)[C@@H](N)[C@@H](C)O)C(=O)N[C@@H](CC(C)C)C(=O)N[C@@H](CCCNC(=N)N)C(=O)N[C@@H](CCCNC(=N)N)C(=O)N[C@@H](CC(C)C)C(=O)N[C@@H](Cc1ccccc1)C(=O)N[C@@H](CC(N)=O)C(=O)N[C@@H](CC(C)C)C(=O)N[C@@H](CS)C(N)=O	metabolic cages	C57BL/6J mice	ip, 5 mg/kg	–	ambulatory activity	no effect
Cc1cc(-c2ccc(C(=O)[C@@H]3CCCC[C@H]3C(=O)Nc3cnn4c3C(=O)NCC4)cc2)[nH]n1	–	human, urine	oral, 200 mg, 12-24 h	reference: dose	radioactivity recovery per interval	0.49% and 0.54% and 0.67% and 1.35% and 0.45% and 0.23%
Cc1cc(C)n(CCN(CCN)CCCCCCNC(=O)[C@@H](N)Cc2c[nH]c3ccccc23)n1.[99Tc+].[C-]#[O+].[C-]#[O+].[C-]#[O+]	–	BALB/c nude mice A549 xenograft	intravenous, 4 h	reference: tumour over blood	tumour-to-tissue ratio	1.5
CN[C@H](CC(C)C)C(=O)N[C@H]1C(=O)N[C@@H](CC(N)=O)C(=O)N[C@H]2C(=O)N[C@H]3C(=O)N[C@H](C(=O)N[C@H](C(=O)N[C@H](CCCNC(=N)N)C(N)=O)c4cc(O)cc(O)c4-c4cc3ccc4O)[C@H](O)c3ccc(c(Cl)c3)Oc3cc2cc(c3O[C@@H]2O[C@H](CO)[C@@H](O)[C@H](O)[C@H]2O[C@H]2C[C@](C)(N)[C@H](O)[C@H](C)O2)Oc2ccc(cc2Cl)[C@H]1O	–	female CD-1 mouse, plasma	intravenous, 50 mg/kg, single dose	–	Cmax	126000 ng/mL
Cc1cccc(Cn2ncc3c4cc(F)c(CN(C)C)cc4n(C)c3c2=O)n1	–	Dutch-belted rabbit, plasma	intravitreal, 1 µM vitreous, 14.00 days	–	plasma concentration	not detected
O[C@@H]1[C@@H](O)[C@H](n2cc(COc3ccc(-c4nncnn4)cc3)nn2)O[C@H](C[18F])[C@H]1O	–	LS174T xenograft, BALB/c nude mouse, tumour	intravenous, 1 h, with: CC49-TCO, Tz/TCO 1:1	–	tumour uptake	1.9 ± 0.7 %ID/g

Structure (SMILES)	test	system	setting	how to read	endpoint	value
C[C@@H](C(=O)O)c1ccc(-c2ccccc2)c(F)c1	HPLC	solution	concentration not given, 6 h, room temperature	–	relative change of HPLC peak area	0.59%
CC[C@H](C)[C@@H]1NC(=O)[C@H](Cc2ccc(O)cc2)NC(=O)CCCSC[C@@H](C(=O)N(CC(=O)N[C@@H](CC(C)C)C(=O)NCC(N)=O)Cc2ccc(F)cc2)NC(=O)[C@H](CC(N)=O)NC(=O)[C@H](CCC(N)=O)NC1=O	–	human	intranasal, 5 µg single dose	–	serious adverse events	0%
COc1cccc(OC)c1-c1cc(C(=O)NC2(C(=O)O)C3CC4CC(C3)CC2C4)nn1-c1ccc(C(=O)NCCNC(=O)[C@H](CCCCNC(=O)[C@H](CC(C)C)NC(=O)C2OC2C(=O)O)NC(=O)CN2CCN(CC(=O)[O-])CCN(CC(=O)[O-])CCN(CC(=O)[O-])CC2)cc1C(C)C.[177Lu+3] (mixture of isomers)	–	mouse, HT-29 xenograft	72 h post injection, biodistribution	reference: tumour over heart uptake	tumour-to-heart ratio	32.4
O=C(OC(C(F)(F)F)C(F)(F)F)N1CCC(CNS(=O)(=O)c2ccc(Cl)cc2)CC1	–	CB17 SCID mice, male, plasma	oral, 30 mg/kg	–	Tlast	24 h
CC(CCC(=O)NCC(=O)O)C1CCC2C3CCC4CC(OC5OC(C(=O)O)C(O)C(O)C5O)CCC4(C)C3CC(O)C12C (centres unmarked)	–	human, plasma	control	–	Cmin	71.8 ± 44.9 nM
COCC1CN(C2CCN(c3cc(OC)c(Nc4ncc(Br)c(Nc5ccc6c(c5P(C)(C)=O)OCCO6)n4)cc3C)CC2)C1	–	EGFR-mutant NSCLC patients	oral, 150 mg once daily	–	grade ≥3 treatment-related AEs	16.7%
C=CC(=O)Nc1cc(Nc2nccc(-c3cn(C)c4ccccc34)n2)c(OC)cc1N(C)CCNC	storage stability	human dried blood spot	2 h, -80 °C, MQC level	–	recovery	96.1%
O=C(Nc1cnccc1-c1ccc([18F])nc1)c1ccnc(NC(=O)C2CC2)c1	–	FVB/NJ mouse, both sexes, liver	intravenous, 15 min	–	SUV	9.37
CCCC[C@H](NC(=O)CNC(=O)CNC(=O)[C@H](CCCCNC(=O)C(C)c1ccc(CC(C)C)cc1)NC(=O)CN1CCN(CC(=O)O)CCN(CC(=O)O)CCN(CC(=O)O)CC1)C(=O)N[C@H]1CC(=O)NCCCC[C@@H](C(N)=O)NC(=O)[C@H](Cc2c[nH]c3ccccc23)NC(=O)[C@H](CCCNC(=N)N)NC(=O)[C@@H](Cc2ccccc2)NC(=O)[C@H](Cc2c[nH]cn2)NC1=O (some centres unmarked) [lutetium-177 labelled]	–	C57 mice, tumour	2 h	reference: liver	tumour-to-tissue ratio	0.92
C#CC1(NC(=O)C(CC(C)(C)F)NC(c2ccc(-c3ccc(S(C)(=O)=O)cc3)cc2)C(F)(F)F)CC1 (centres unmarked)	–	PBS	100 µM, 23 h, pH 7.45, 37 °C, with: cysteine 10 mM	–	cysteine adduct formation	0%
O=C(NS(=O)(=O)c1cccs1)c1cc2ccccc2n1Cc1ccc(Br)c2ccccc12	–	KM mouse, chronic hyperuricaemia model	dose not given, day 11	–	body weight	31.4 g and 30.4 g and 30.8 g and 26.8 g and 33.6 g and 30.6 g
Cc1cc(NC(=O)[C@H](O)c2cc(F)cc(F)c2)ccc1-c1cnc(N)c(C(=O)NC(C)C)c1	–	athymic nude Foxn1nu mouse, female, plasma	oral, 3 mg/kg	–	dose-normalised Cmax	124 ng·kg/mL/mg
Cc1ncsc1-c1ccc(CNC(=O)[C@@H]2C[C@@H](O)CN2C(=O)[C@@H](NC(=O)COCC(C)(COCCOCCOCCNC(=O)C[C@@H]2N=C(c3ccc(Cl)cc3)c3c(sc(C)c3C)-n3c(C)nnc32)COCCOCCOCCNC(=O)C[C@@H]2N=C(c3ccc(Cl)cc3)c3c(sc(C)c3C)-n3c(C)nnc32)C(C)(C)C)cc1	–	male C57BL/6 mice, plasma	subcutaneous, 5 mg/kg, 30 min, sample diluted 20-fold	–	plasma concentration	1310 ng/mL
C=CC(=O)Nc1cc(Nc2nccc(-c3c[nH]c4ccccc34)n2)c(OC)cc1N(C)CCN(C)C	storage stability	human plasma	30 d, on ice, LLOQ level	–	recovery	44.1%
Cc1nn(-c2nc3c(F)cc(F)cc3s2)c(O)c1C(c1ccc(C(F)(F)F)cc1)c1c(C)nn(-c2nc3c(F)cc(F)cc3s2)c1O	–	ICR mouse, plasma	intravenous, 5 mg/kg	–	AUMC(0-inf) observed	322000 h²·ng/mL and 2.26e+06 h²·ng/mL and 263000 h²·ng/mL
O=C([O-])CN1CCN(CC(=O)[O-])CCN(CC(CCCc2ccccc2[N+](=O)[O-])N(CC(=O)[O-])CC(=O)[O-])CC1.[90Y+3] (centres unmarked)	HPLC	human serum	264 h, pH 7, 37 °C	–	intact radiolabelled complex	100%

Some of these lines once more:
Structure (SMILES)	test	system	setting	how to read	endpoint	value
C[C@@H](C(=O)O)c1ccc(-c2ccccc2)c(F)c1	HPLC	solution	concentration not given, 6 h, room temperature	–	relative change of HPLC peak area	0.59%
C=CC(=O)Nc1cc(Nc2nccc(-c3cn(C4CC4)c4ccccc34)n2)c(OC)cc1N(C)CCNC	long-term storage stability	rat plasma	80 ng/mL, 3 weeks, -80 °C	reference: nominal concentration	relative error	1.7%
